Assay results pooled from the literature.
Each line is one published result; not all experiments were run side by side. Numbers after ± are the reported error.
U2AF2: U2AF2 148-342 (Homo sapiens, UniProt P26368)
Chain of UniProt P26368 (whole entry, looked up): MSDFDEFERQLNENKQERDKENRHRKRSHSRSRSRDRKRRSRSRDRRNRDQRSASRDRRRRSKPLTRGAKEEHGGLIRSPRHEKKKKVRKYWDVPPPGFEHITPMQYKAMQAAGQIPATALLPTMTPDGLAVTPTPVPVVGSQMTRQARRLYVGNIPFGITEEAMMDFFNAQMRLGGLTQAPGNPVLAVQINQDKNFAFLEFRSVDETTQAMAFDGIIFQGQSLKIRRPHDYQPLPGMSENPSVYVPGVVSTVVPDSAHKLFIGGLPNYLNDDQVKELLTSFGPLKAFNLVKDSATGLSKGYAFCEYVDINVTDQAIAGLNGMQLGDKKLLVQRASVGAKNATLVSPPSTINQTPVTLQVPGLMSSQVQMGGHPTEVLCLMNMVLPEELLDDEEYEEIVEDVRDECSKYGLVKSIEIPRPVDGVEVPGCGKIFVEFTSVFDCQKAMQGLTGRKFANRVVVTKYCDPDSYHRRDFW
B1: ovalbumin; sequence looked up; chain GSIGAASMEFCFDVFKELKVHHANENIFYCPIAIMSALAMVYLGAKDSTRTQINKVVRFDKLPGFGDSIEAQCGTSVNVHSSLRDILNQITKPNDVYSFSLASRLYAEERYPILPEYLQCVKELYRGGLEPINFQTAADQARELINSWVESQTNGIIRNVLQPSSVDSQTAMVLVNAIVFKGLWEKAFKDEDTQAMPFRVTEQESKPVQMMYQIGLFRVASMASEKMKILELPFASGTMSMLVLLPDEVSGLEQLESIINFEKLTEWTSSNVMEERKIKVYLPRMKMEEKYNLTSVLMAMGITDVFSSSANLSGISSAESLKISQAVHAAHAEINEAGREVVGSAEAGVDAASVSEEFRADHPFLFCIKHIATNAVLFFGRCVSP
B2: human RAB8A; sequence looked up; chain MAKTYDYLFKLLLIGDSGVGKTCVLFRFSEDAFNSTFISTIGIDFKIRTIELDGKRIKLQIWDTAGQERFRTITTAYYRGAMGIMLVYDITNEKSFDNIRNWIRNIEEHASADVEKMILGNKCDVNDKRQVSKERGEKLALDYGIKFMETSAKANINVENAFFTLARDIKAKMDKKLEGNSPQGSNQGVKITPDQQKRSSFFRC
B3: human SMC3; sequence looked up; chain MYIKQVIIQGFRSYRDQTIVDPFSSKHNVIVGRNGSGKSNFFYAIQFVLSDEFSHLRPEQRLALLHEGTGPRVISAFVEIIFDNSDNRLPIDKEEVSLRRVIGAKKDQYFLDKKMVTKNDVMNLLESAGFSRSNPYYIVKQGKINQMATAPDSQRLKLLREVAGTRVYDERKEESISLMKETEGKREKINELLKYIEERLHTLEEEKEELAQYQKWDKMRRALEYTIYNQELNETRAKLDELSAKRETSGEKSRQLRDAQQDARDKMEDIERQVRELKTKISAMKEEKEQLSAERQEQIKQRTKLELKAKDLQDELAGNSEQRKRLLKERQKLLEKIEEKQKELAETEPKFNSVKEKEERGIARLAQATQERTDLYAKQGRGSQFTSKEERDKWIKKELKSLDQAINDKKRQIAAIHKDLEDTEANKEKNLEQYNKLDQDLNEVKARVEELDRKYYEVKNKKDELQSERNYLWREENAEQQALAAKREDLEKKQQLLRAATGKAILNGIDSINKVLDHFRRKGINQHVQNGYHGIVMNNFECEPAFYTCVEVTAGNRLFYHIVDSDEVSTKILMEFNKMNLPGEVTFLPLNKLDVRDTAYPETNDAIPMISKLRYNPRFDKAFKHVFGKTLICRSMEVSTQLARAFTMDCITLEGDQVSHRGALTGGYYDTRKSRLELQKDVRKAEEELGELEAKLNENLRRNIERINNEIDQLMNQMQQIETQQRKFKASRDSILSEMKMLKEKRQQSEKTFMPKQRSLQSLEASLHAMESTRESLKAELGTDLLSQLSLEDQKRVDALNDEIRQLQQENRQLLNERIKLEGIITRVETYLNENLRKRLDQVEQELNELRETEGGTVLTATTSELEAINKRVKDTMARSEDLDNSIDKTEAGIKELQKSMERWKNMEKEHMDAINHDTKELEKMTNRQGMLLKKKEECMKKIRELGSLPQEAFEKYQTLSLKQLFRKLEQCNTELKKYSHVNKKALDQFVNFSEQKEKLIKRQEELDRGYKSIMELMNVLELRKYEAIQLTFKQVSKNFSEVFQKLVPGGKATLVMKKGDVEGSQSQDEGEGSGESERGSGSQSSVPSVDQFTGVGIRVSFTGKQGEMREMQQLSGGQKSLVALALIFAIQKCDPAPFYLFDEIDQALDAQHRKAVSDMIMELAVHAQFITTTFRPELLESADKFYGVKFRNKVSHIDVITAEMAKDFVEDDTTHG

Molecule = human ME2 Q101T; test = enzyme activity, substrate; system = recombinant enzyme; conditions = pH 7.4, with: no fumarate; quantity = K0.5; value = 11.1 ± 0.24 mM
Molecule = insulin icodec; system = human, end-stage renal disease, serum; conditions = subcutaneous, 1.5 U/kg single dose; how to read = baseline: normal renal function; quantity = AUC(0-inf) increase; value = 14%
Molecule = insulin icodec; system = Chinese type 2 diabetes patients, serum; conditions = subcutaneous, once-weekly geometric mean; quantity = half-life, steady state; value = 159 h
Molecule = AAUCAUUUU (ssRNA); target or system = U2AF2; test = sequencing of bound RNA; system = RNA; conditions = motif only; quantity = Kd; value = 1180 nM
Molecule = B1 (ovalbumin); test = IVIS, DyLight 755-labelled; system = SKH1-Elite mice; conditions = subcutaneous, injection volume 50 µL; quantity = time to 75% release from injection site; value = ≤ 2 days
Molecule = ACDDQNPWRAYLDLLFPTDTLLLDLLW; test = ex vivo fluorescence imaging; system = peptide, BALB/c mice, 4T1 tumour-bearing, 4T1 tumour; conditions = intravenous, 5 nmol, 2 h post-injection; how to read = higher = more uptake; quantity = mean fluorescence intensity; value = 4660 ± 720 a.u.
Molecule = insulin aspart; system = human, type 1 diabetes, plasma; conditions = subcutaneous, 0.3 U/kg, geometric mean; quantity = insulin AUC(0-4h); value = 12400 pg·h/mL
Molecule = insulin aspart; test = ELISA, refers to: total insulin aspart; system = human, type 1 diabetes, serum; conditions = subcutaneous, least squares mean, single dose; quantity = tmax; value = 1.08 h
Molecule = human ME2 I99V; test = enzyme activity, substrate; system = recombinant enzyme; conditions = pH 7.4, with: no fumarate; quantity = K0.5; value = 15.3 ± 0.47 mM
Molecule = B2 (human RAB8A); target or system = CYB5R4 knockout human cells; test = PP4 interaction, 3xFLAG-PP4C IP-MS; conditions = concentration not given; how to read = baseline: CYB5R4 KO over parental; quantity = log2 fold change; value = -2.15
Molecule = insulin degludec; system = human; conditions = subcutaneous, 0.4 IU/kg, 1 FC level, single dose, reference formulation; quantity = AUC0−12; value = 171 ± 35 ng·h/mL
Molecule = durvalumab; system = human cancer patients, plasma; conditions = intravenous, 1500 mg, cycle 4 day 1, with: adavosertib 250 mg once daily; quantity = Ctrough geometric mean; value = 91000 ng/mL
Molecule = AUUAUUGAA (ssRNA); target or system = U2AF2; test = sequencing of bound RNA; system = RNA; conditions = motif only; quantity = Kd; value = 3440 nM
Molecule = human ME2 T60S; test = enzyme activity, substrate; system = recombinant enzyme; conditions = pH 7.4, with: fumarate 3 mM; quantity = K0.5; value = 3.19 ± 0.31 mM
Molecule = ACEQNPIYWARYADWLFTTPLLLLDLALLVDADEGT; test = ex vivo fluorescence imaging; system = peptide, BALB/c mice, 4T1 tumour-bearing, liver; conditions = intravenous, 5 nmol, 48 h post-injection; how to read = higher = more uptake; quantity = mean fluorescence intensity; value = 357 ± 24.5 a.u.
Molecule = Neuropeptide Y; test = RP-HPLC; system = HALO Peptide ES-C18 column; conditions = 25 µM, formic acid/acetonitrile, 10 min gradient; quantity = retention time; value = 5.07 min
Molecule = human ME2 D102S; test = enzyme activity, substrate; system = recombinant enzyme; conditions = pH 7.4, with: fumarate 3 mM; quantity = K0.5; value = 3.37 ± 0.12 mM
Molecule = adrenomedullin; test = RP-HPLC; system = HALO RP-amide column; conditions = 25 µM, acetic acid/acetonitrile, 25 min gradient; quantity = retention time; value = 7.06 min
Molecule = B3 (human SMC3); target or system = CYB5R4 knockout human cells; test = PP4 interaction, 3xFLAG-PP4C IP-MS; conditions = concentration not given; how to read = baseline: CYB5R4 KO over parental; quantity = log2 fold change; value = 0.28
Molecule = ACEEQNPWARYLEWLFPTETLLLEL; test = ex vivo fluorescence imaging; system = peptide, BALB/c mice, 4T1 tumour-bearing, 4T1 tumour; conditions = intravenous, 5 nmol, 48 h post-injection; how to read = higher = more uptake; quantity = mean fluorescence intensity; value = 517 ± 129 a.u.
Molecule = human ME2 R91A; test = enzyme activity, substrate; system = recombinant enzyme; conditions = pH 7.4, with: fumarate 3 mM; quantity = K0.5; value = 2.43 ± 0.26 mM
Molecule = insulin; test = LC-MS/MS; system = prepared human sample; conditions = two freeze-thaw cycles; quantity = concentration; value = 11.6 ng/mL
Molecule = pegcetacoplan; test = refers to: eye disorders; system = patients with PNH; conditions = dose not given, phase Ib trial; quantity = number of TEAEs; value = 7

Repeated from above:
Molecule = AAUCAUUUU (ssRNA); target or system = U2AF2; test = sequencing of bound RNA; system = RNA; conditions = motif only; quantity = Kd; value = 1180 nM
Molecule = B1 (ovalbumin); test = IVIS, DyLight 755-labelled; system = SKH1-Elite mice; conditions = subcutaneous, injection volume 50 µL; quantity = time to 75% release from injection site; value = ≤ 2 days
